{"data": "Measured values of several laboratories", "note": "Lines come from different studies, so protocols differ. Numbers after ± are the reported error."}
{"SMILES": "CC1=CC(c2ccccc2)=NS(=O)(=O)N1", "method": "polymer-water distribution, UV", "temperature": "25 °C", "pKa": "2.52 ± 0.17"}
{"SMILES": "N#Cc1ccc(C[C@H](NC(=O)[C@@H](N)CC(N)=O)C(=O)NCC(N)=O)cc1", "read-out": "N-terminal amino group", "method": "fluorescence pH titration", "medium": "water", "tested at": "20 µM", "temperature": "25 °C", "setting": "two-state fit", "pKa": 6.69}
{"SMILES": "O=C(O)COP(=O)(O)O", "pKa": 6.3}
{"SMILES": "NC(Cc1cc(=O)oc2cc(O)ccc12)C(=O)O (stereo not shown)", "method": "pH-dependent fluorescence", "pKa": 7.8}
{"SMILES": "Nc1nc2c([C@@H]3O[C@H](CO)[C@@H](O)[C@H]3O)snc2c(=O)[nH]1", "method": "fluorescence emission vs pH", "pKa": 9.88}
{"SMILES": "OCCN1CCN(CCCN2c3ccccc3Sc3ccc(C(F)(F)F)cc32)CC1", "pKa": 4.55}
{"SMILES": "N#Cc1ccc(C[C@H](NC(=O)[C@@H]2CCCN2)C(=O)NCC(N)=O)cc1", "read-out": "N-terminal amino group", "method": "fluorescence pH titration", "medium": "water", "tested at": "20 µM", "temperature": "25 °C", "setting": "two-state fit", "pKa": 7.28}
{"SMILES": "O=c1cc(-c2ccc(O)c(-c3c(O)cc(O)c4c(=O)cc(-c5ccc(O)cc5)oc34)c2)oc2cc(O)cc(O)c12", "method": "UV-vis pH titration", "medium": "ethanol-water, 0.1 M NaCl", "tested at": "25 µM", "temperature": "25 °C", "setting": "second pKa, o-carbonyl-phenol", "pKa": 4.57}
{"SMILES": "CSCC[C@H](N)C(=O)N[C@@H](Cc1ccc(C#N)cc1)C(=O)NCC(N)=O", "read-out": "N-terminal amino group", "method": "fluorescence pH titration", "medium": "water", "tested at": "20 µM", "temperature": "25 °C", "setting": "two-state fit", "pKa": 7.04}
{"SMILES": "O=S(=O)([O-])c1cc(O)c2ccc3c(S(=O)(=O)[O-])cc(S(=O)(=O)[O-])c4ccc1c2c34.[Na+].[Na+].[Na+]", "method": "ratiometric absorbance", "tested at": "70 µM", "pKa": 7.01}
{"SMILES": "O=c1[nH]cnc2c([C@@H]3O[C@H](CO)[C@@H](O)[C@H]3O)snc12", "method": "UV-vis absorption titration", "pKa": 9.26}
{"SMILES": "N#Cc1ccc(C[C@H](NC(=O)[C@@H](N)CO)C(=O)NCC(N)=O)cc1", "read-out": "N-terminal amino group", "method": "fluorescence pH titration", "medium": "water", "tested at": "20 µM", "temperature": "25 °C", "setting": "two-state fit", "pKa": 8.59}
{"SMILES": "COc1c(N2CCNC(C)C2)c(F)cc2c(=O)c(C(=O)O)cn(C3CC3)c12 (stereo not shown)", "method": "pH titration", "temperature": "25 °C", "setting": "aliphatic secondary amine", "pKa": 9.21}
{"SMILES": "C[C@H](N)C(=O)N[C@@H](Cc1ccc(C#N)cc1)C(=O)NCC(N)=O", "read-out": "N-terminal amino group", "method": "fluorescence pH titration", "medium": "water", "tested at": "20 µM", "temperature": "25 °C", "setting": "two-state fit", "pKa": 7.99}
{"SMILES": "O=c1[nH]c(=O)c2nsc([C@@H]3O[C@H](CO)[C@@H](O)[C@H]3O)c2[nH]1", "method": "fluorescence emission vs pH", "pKa": 8.94}
{"SMILES": "CN1CCN2c3ncccc3Cc3ccccc3C2C1 (stereo not shown)", "pKa": 4.21}
{"note": "A few entries again:"}
{"SMILES": "Nc1nc2c([C@@H]3O[C@H](CO)[C@@H](O)[C@H]3O)snc2c(=O)[nH]1", "method": "fluorescence emission vs pH", "pKa": 9.88}
{"SMILES": "CC1=CC(c2ccccc2)=NS(=O)(=O)N1", "method": "polymer-water distribution, UV", "temperature": "25 °C", "pKa": "2.52 ± 0.17"}
